Measurements gathered from unrelated publications.
Each line is one published result; not all experiments were run side by side. Several values in a cell are separate wells, animals, samples, runs or records. ± gives the spread as reported.

Under “incidence musculoskeletal chest pain”, `CCO[C@H]1CCN(Cc2c(OC)cc(C)c3[nH]ccc23)[C@H](c2ccc(C(=O)O)cc2)C1` is recorded as 0% (PNH patients, active haemolysis; oral, 25 mg, 4 weeks, treatment).
The anaemia incidence of `CNCc1ccc(-c2[nH]c3cc(F)cc4c3c2CCNC4=O)cc1` is reported as 7.7% (patients; oral, 600 mg twice daily, grade 2).
`N#Cc1ccc2c(c1)[C@H]1CCCN(C(=O)c3ccc4[nH]cnc4c3)[C@H]1C2` has a DHEA-S level of 9.5 µmol/L (human, male; 160 mg, day 15).
With `O=C(NCc1ccc(CNCCOCCO)cc1)c1csc2nc[nH]c(=O)c12` the EC50 was > 100 µM (haemolysis; human red blood cells; 1 h, 37 °C).
`CC(C)C[C@H](NC(=O)[C@@H](Cc1c[nH]c2ccccc12)NC(=O)[C@H](Cc1ccc(O)cc1)NC(=O)[C@H](CO)NC(=O)[C@H](Cc1c[nH]c2ccccc12)NC(=O)[C@H](Cc1c[nH]cn1)NC(=O)[C@@H]1CCC(=O)N1)C(=O)N[C@@H](CCCNC(=N)N)C(=O)N1CCC[C@H]1C(=O)NCC(N)=O` — result for “patients, drug-related Obesity TEAEs”: 0% (Chinese CPP boys; intramuscular, 22.5 mg, 12 months, day 1, month 6).
Under “subjects with adverse event”, `CC(C)n1c(Nc2cccnc2)nc2cnc(Nc3ccc(N4CCN(C)CC4)cc3)nc21` is recorded as 0% (refers to: diastolic blood pressure increased; healthy male subjects; oral, 100 mg, study, added: itraconazole).
`CCC(=O)N(CCC(c1ccc2c(c1)OCO2)c1ccccc1OC)Cc1ccccc1` (centres unmarked) gave an albumin of 2.52 g/dL (mouse, blood; i.p., 60 mg/kg twice daily, 2 weeks).
For `CN(CCC(=O)O)C(=O)c1ccc2c(c1)CC[C@@H]1[C@@H]2CC[C@]2(C)C(c3cncc(F)c3)=CC[C@@H]12`, “indirect bilirubin change” read 0.37 mg/dL (premenopausal women, endometriosis pain, serum; 60 mg twice daily, visit 6, median; baseline: baseline).
For `COc1ccc2[nH]c([S@+]([O-])Cc3ncc(C)c(OC)c3C)nc2c1`, the AUC(0-8 h) was 0.179 µM·h (human male, dried plasma spots; oral, 5 mg racemic omeprazole).
For `CCOCc1nc(O)c(-c2nnc(Cc3ccc(Cl)cn3)o2)c(O)c1-c1c(OC)cccc1OC`, the plasma concentration was 0.047 ± 0.004 µM (anaesthetised rat, plasma; intravenous infusion, 1 µg/kg/min, 5 min).
`CC(C)(C(=O)N1CCOc2c(C#N)cncc2C1)C(F)F` — result for “subjects with thrombophlebitis TEAE”: 0% (human, both sexes; oral, 20 mg single dose).
`O=C(CCCCCCC(=O)Nc1ccc(CC[18F])cc1)NO` has a tissue uptake of 3.5 ± 0.5 %ID/g (athymic nu/nu male mice, LNCaP xenograft, lungs; intravenous, 0.5 h).
Under CSF concentration, `O=C(O)CCc1cc(O)cc(O)c1` is recorded as “not detected” (human CSF; concentration not given, mean).
The recovery of `C=CC(=O)Nc1cc(Nc2nccc(-c3cn(C)c4ccccc34)n2)c(OC)cc1N(C)CCN(C)C` is reported as 91.2% (storage stability; human plasma; 5 h, on ice, medium QC level).
`C[C@@H]1CN(c2c(F)c(N)c3c(=O)c(C(=O)O)cn(C4CC4)c3c2F)C[C@H](C)N1` has a heart rate of 234 ± 0.8 beats/min (male Hartley guinea pigs, anaesthetized; intravenous, 10 mg/kg group, baseline before infusion).
The AUC(0-tau) of `O=C(O)CCC(=O)O.[2H]C([2H])([2H])Oc1cc(C)c2[nH]ccc2c1CN1CC[C@@H](C2CC2)C[C@H]1c1ccc(C(=O)O)cc1` is reported as 9770 ng·h/mL (human, plasma; 50 mg twice daily, day 1, multiple ascending dose, geometric mean).
`COc1cc2nccc(Oc3ccc(NC(=O)c4cc5c(n(-c6ccccc6)c4=O)CCCC5=O)nc3)c2cc1OC`: “TEAEs leading to interruption” 40% (patients with relapsed/refractory AML; oral, 3 mg once daily).
`O=C(Nc1nc2cccc(-c3ccc(CN4CCS(=O)(=O)CC4)cc3)n2n1)C1CC1`: “treatment-emergent adverse events” 0% (refers to: gingival bleeding; human rheumatoid arthritis patients; oral, 200 mg once daily, 4 weeks, regardless of relatedness).
With `COc1ccnc(C(=O)N[C@H]2COC(=O)[C@H](Cc3ccccc3)[C@@H](O)[C@H](C)OC2=O)c1O` the KOC was 673 mL/g (FOCUS PEARL groundwater modelling; soil; geometric mean input).
For `CN(C(=O)n1cnc(-c2cccnc2)c1)C1CCCCC1`, the tissue concentration was 6 ± 3 ng/g (Wistar rat, medulla oblongata; oral, 10 mg/kg, 24 h, single dose).
For `CCCCCCC#Cc1cncc(-c2nnc(SCc3ccc([N+](=O)[O-])o3)n2C)c1`, the CC50 was 33 ± 2.89 µM (African green monkey cells; 72 h).
For `O=C(COc1ccc(Cl)cc1)NC12CC(c3nnc([C@H]4C[C@@H](OC(F)(F)F)C4)o3)(C1)C2`, “post lumbar puncture syndrome” read 15.8% (humans).
`CC1(C)OB(/C=C/COCOCC(=O)OCc2ccccc2)OC1(C)C` has a yield of 98% (oxidative cleavage releasing alcohol, 1H NMR; pH 7.4, added: H2O2).
`Cc1noc(C)c1-c1cc(C(O)(c2ccccn2)c2ccccn2)c2nc(C3CC3)[nH]c2c1` has a Ctau of 60.7 ng/mL (human patients, plasma; oral, 1.4 mg, cycle 1 day 8, monotherapy).
`CCOc1c([C@H](C)n2nc(C)c3c(N)ncnc32)cc(Cl)c(F)c1[C@@H]1CNC(=O)C1` gave an AUC(0-tau) of 21.1 µM·h (human, all cohorts, plasma; oral, 30 mg, day 15, geometric mean).
Under “incidence of blurred vision grade ≥3”, `Cn1cnc2ccc(Nc3c(F)ccc(NS(=O)(=O)N4CC(F)C4)c3Cl)c(Cl)c2c1=O` is recorded as 1% (human; dose not given, monotherapy, first-in-human; baseline: participants).
For `Cn1cc(Nc2nccc(-c3ccc4c(c3)CN(C3COC3)CC[C@H]4NC(=O)c3cn(C(C)(C)C)nn3)n2)cn1`, “non-switched memory B cell change” read -18.7% (human, whole blood; 50 mg twice daily, day 14; baseline: pre-dose baseline).
The blood CHCM of `CCc1cc(C(=O)NC)c2nccc(N3CCc4c(cc(Cn5ccnc5)cc4-c4cn(C)nc4C(F)(F)F)C3=O)c2c1` is reported as 307 ± 5.2 g/L (Sprague Dawley rats; oral, 50 mg/kg once daily, 7 days).
`CCN1CCN(Cc2ccc(NC(=O)c3ccc(C)c(NC(=O)c4cncc(-c5cccs5)c4)c3)cc2C(F)(F)F)CC1` has a plasma concentration of 274 ng/mL and 266 ng/mL and 174 ng/mL (LC-MS/MS; C57BL/6 mouse, plasma; intraperitoneal, 15 mg/kg single dose, 2 h).
The CC50 of `Fc1ccc(Nc2c(-c3ccccn3)nc3ccccn23)cc1` is reported as 31.6 µM (cytotoxicity; peritoneal macrophages, Swiss mouse; 5 days).
For `C[C@@H](N)C1CCN(S(=O)(=O)c2cccc3cnccc23)CC1`, “treatment-related TEAE incidence” read 30% (healthy volunteers; 150 mg, fed).
`O=C(N[C@H](Cc1c[nH]c2ccccc12)C(=O)Nc1ccncc1)c1ccc(-c2ccc(F)c(Cl)c2)cc1F` has a concentration of 55 µM (Swiss Webster mouse, female, intestine; oral, 50 mg/kg, 2 h, 20% Kolliphor vehicle).
`COc1c(N2C[C@@H]3CCCN[C@@H]3C2)c(F)cc2c(=O)c(C(=O)O)cn(C3CC3)c12` has a heart rate of 198 ± 1.8 beats/min (male Hartley guinea pigs, anaesthetized; intravenous, 10 mg/kg over 10 min, after infusion).
`CNC(=O)c1ccc(-c2cnc3ncc(Cc4ccc5ncccc5c4)n3n2)cc1F` — result for “Urticaria dose reduction/interruption”: 2% (Japanese patients; oral, 400 mg, grade 3/4).
`Cc1ccc([C@@H]2O[C@H](CO)[C@@H](O)[C@H](O)[C@H]2O)cc1Cc1ccc(-c2ccc(F)cc2)s1` — result for “urinary calcium excretion change”: -11.1 mg (Japanese type 2 diabetes patients; 400 mg, day 18, 24 h urine collection; baseline: baseline).
The heart rate of `O=C(CCCN1CCC(O)(c2ccc(Cl)cc2)CC1)c1ccc(F)cc1` is reported as 220 ± 0.5 beats/min (male Hartley guinea pigs, anaesthetized; intravenous, 0.01 mg/kg over 10 min, after infusion).
For `CO[C@H]1C[C@@H]2CC[C@@H](C)[C@@](O)(O2)C(=O)C(=O)N2CCCC[C@H]2C(=O)O[C@H]([C@H](C)C[C@@H]2CC[C@@H](OC(=O)NCCOCCOCCOCCOCCOCCOCCOCCOCCC(=O)N3CCc4cc(Cn5nc(-c6ccc7oc(N)nc7c6)c6c(N)ncnc65)ccc4C3)[C@H](OC)C2)C[C@@H](O)[C@H](C)/C=C(\C)[C@@H](O)[C@@H](OC)C(=O)[C@H](C)C[C@H](C)/C=C/C=C/C=C/1C`, the AUClast ratio was 1.9 (human, plasma; intravenous, 12 mg, cycle 1; baseline: day 15 over day 1).
`Cc1cc(-c2nnc(N)nc2-c2ccc(F)cc2)cc(Cl)n1`: “patients with treatment-related adverse events” 24% (refers to: Dizziness; human phase Ia/Ib colorectal cancer, immunotherapy-naive; oral, dose not given).
Under “incidence of lower abdominal pain”, `NC1(C(=O)N[C@@H](CCO)c2ccc(Cl)cc2)CCN(c2nc[nH]c3nccc2-3)CC1` is recorded as 0% (metastatic CRPC patients; 400 mg b.i.d., grade 3 to 4, treatment-related, added: enzalutamide 160 mg daily).
With `COc1ncc(-c2nc3c(n2C(C)C)[C@H](c2ccc(Cl)cc2)N(c2cc(Cl)cn(C)c2=O)C3=O)c(OC)n1` the Cmax was 1420 ng/mL (LC-MS/MS, noncompartmental; human, plasma; oral, 200 mg, C2D1, high-dose, geometric mean).
`C[C@@H](Nc1cc(F)cc(F)c1)c1cc(C(=O)N(C)C)cc2c(=O)cc(N3CCOCC3)oc12` — result for “treatment-related serious adverse events”: 0% (refers to: confusional state; patients with advanced solid tumours; oral, dose not given, dose expansion phase I).
For `CC[C@H](C)[C@H](NC(=O)[C@H](Cc1ccccc1)NC(=O)[C@H](CCC(=O)O)NC(=O)[C@H](CCCCNC(=O)COCCOCCNC(=O)COCCOCCNC(=O)CC[C@H](NC(=O)CCCCCCCCCCCCCCCCC(=O)O)C(=O)O)NC(=O)[C@H](C)NC(=O)[C@H](C)NC(=O)[C@H](CCC(N)=O)NC(=O)CNC(=O)[C@H](CCC(=O)O)NC(=O)[C@H](CC(C)C)NC(=O)[C@H](Cc1ccc(O)cc1)NC(=O)[C@H](CO)NC(=O)[C@H](CO)NC(=O)[C@@H](NC(=O)[C@H](CC(=O)O)NC(=O)[C@H](CO)NC(=O)[C@@H](NC(=O)[C@H](Cc1ccccc1)NC(=O)[C@@H](NC(=O)CNC(=O)[C@H](CCC(=O)O)NC(=O)C(C)(C)NC(=O)[C@@H](N)Cc1cnc[nH]1)[C@@H](C)O)[C@@H](C)O)C(C)C)C(=O)N[C@@H](C)C(=O)N[C@@H](Cc1c[nH]c2ccccc12)C(=O)N[C@@H](CC(C)C)C(=O)N[C@H](C(=O)N[C@@H](CCCNC(=N)N)C(=O)NCC(=O)N[C@@H](CCCNC(=N)N)C(=O)NCC(=O)O)C(C)C`, “QT change from baseline” read -21.1 ms (12-lead Holter ECG; healthy humans; subcutaneous, 1.5 mg once weekly, 25 h, steady state; baseline: placebo).
`O=C1CCc2ccc(OCCCCN3CCN(c4cccc(Cl)c4Cl)CC3)cc2N1`: “cardiovascular symptom frequency” 2.8% (CYP2D6 intermediate metabolizers; concentration not given, genotype-based phenotype, long-acting oral or depot).
For `O=S(=O)(O)Oc1ccc(CCO)cc1`, CSF concentration read “not detected” (human CSF; concentration not given, mean).
`Cc1cc(OCCOCCC(F)(F)P(=O)(O)O)ccc1CCc1cnc2c(N)nc3cc(CCC(=O)O)ccc3c2c1` has an AUC(tau) of 69.4 ng·h/mL (human, serum; intratumoral, 600 µg every 2 weeks, cycle 1 day 1).
`CCCCOC(=O)N1CCN(C(=O)[C@H](CP(=O)(O)O)NC(=O)c2cc(N3CC[C@H](OC)C3)nc(-c3ccccc3)n2)CC1`: “change in heart rate” -4.2 ± 8.5 beats/min (human; subcutaneous, 8 mg, 1 h post-dose; baseline: baseline).
The heart rate of `CC/C(=C(\c1ccccc1)c1ccc(OCCN(C)C)cc1)c1ccccc1` is reported as 217 ± 0.9 beats/min (male Hartley guinea pigs, anaesthetized; intravenous, 10 mg/kg group, baseline before infusion).
Under “patients with grade 3 cardiac disorders”, `CNC(=O)c1cc(Oc2ccc(NC(=O)Nc3cc(C(C)(C)C)nn3-c3ccc4ncccc4c3)c(F)c2)ccn1` is recorded as 7% (patients; oral, dose not given, cycles 1 and 2, Low AUC subgroup).
`CN[C@@H]1COc2c(S(=O)(=O)NC(=O)Nc3c4c(cc5c3CCC5)CCC4)cnn2C1`: “predose plasma concentration” 5170 ng/mL (human, plasma; oral, 900 mg twice daily, D9).
For `CCCOc1ccc(NC(=O)CN2CCN(C)CC2)cc1-c1nc(CC)c(CC)c(=O)[nH]1`, “nasal obstruction incidence” read 13.3% (healthy Chinese men; 10 mg, added: alcohol 0.5 g/kg).
With `[18F]c1ccc(-c2ccc3c(c2)[nH]c2ccncc23)cn1` the uptake was 0.206 ± 0.069 SUV (ex vivo biodistribution; APP/PS1 Alzheimer mice, adipose; intravenous, 30 min).
For `CCN1/C(=C/C(C)=O)Sc2ccc(F)cc21`, “heart rate, blood pressure, ECG” read “no effect” (cynomolgus monkey; oral, 100 mg/kg; baseline: vehicle).
For `CNC(=O)c1ccc(-c2cnc3ncc(Cc4ccc5ncccc5c4)n3n2)cc1F`, “patients with adverse event” read 11% (refers to: Anemia, all grades; cancer patients; oral, 600 mg twice daily, other expansion cohort, any causality).
`COc1c(O)cc(C(=O)O)cc1OS(=O)(=O)O`: CSF concentration “not detected” (human CSF; concentration not given, mean).
For `O=C1c2ccncc2C(=O)c2c1[nH]c1ccccc21`, the tissue concentration was 0.003 ± 0.003 nmol/mg (Sprague-Dawley rat, female, lung; oral, 1 mg/kg, 24 h).
For `CC(C)C[C@H](NC(=O)[C@H](Cc1ccccc1)NC(=O)c1cnccn1)B(O)O`, the organ weight was 651 mg (mouse xenograft, liver; dose not given).
